# Measurements from different studies.
# Compare with care: the assays were run in different laboratories.
# Medium: plasma
Compound,species,route,dose,measurement,value
O=c1c(-c2ccc(Cl)c(CN3CCOCC3)c2)coc2cc(O)ccc12,male Sprague-Dawley rat,intravenous,2 mg/kg,AUC(0-t),573 ng·h/mL
Cc1cccc(Cn2ncc3c4cc(F)c(CN(C)C)cc4n(C)c3c2=O)n1,Sprague-Dawley rat,intravenous,5 mg/kg,AUC(0-inf),1930 ng·h/mL
CCC(CC)n1c(Cc2ccco2)nc2cc(C(=O)N[C@@H](CC(=O)O)c3ccccc3)ccc21,male Sprague-Dawley rat,intravenous,1 mg/kg,AUC(0-inf),803 ng·h/mL
O=C(C1CCN(c2nnnn2-c2ccccc2)CC1)N1CCCc2ccccc21,male Sprague-Dawley rat,oral,5 mg/kg,AUC(0-t),5.8 ng·h/mL
C/C(N)=N/C(=N\S(=O)(=O)c1ccc(C(F)(F)F)cc1)N1C[C@H](c2ccccc2)C(c2ccc(Cl)cc2)=N1,male Sprague-Dawley rat,intravenous,2 mg/kg,AUC(0-inf),2790 ng·h/mL
Cc1cc2c(cc1O)C=C1C=CC(=O)C(C)(C)[C@H]1CC2,male Sprague-Dawley rat,intravenous,2 mg/kg,AUC(0-inf),623 ng·h/mL
COC(=O)C1=CNC=C(C(=O)OC)C1c1ccc(F)c(C(F)(F)F)c1,male Sprague-Dawley rat,oral,50 mg/kg,AUC(0-inf),4290 ng·h/mL
CCC(CC)n1c(Cc2cccs2)nc2cc(C(=O)N[C@@H](CC(=O)O)c3ccccc3)ccc21,male Sprague-Dawley rat,intravenous,1 mg/kg,AUC(0-inf),551 ng·h/mL
OC1(C(F)(F)F)CCN(c2nc(Nc3ccnc(C(F)(F)F)c3)nc(-c3cccc(C(F)(F)F)n3)n2)C1 (stereo not drawn),Sprague-Dawley rat,intravenous,1 mg/kg,AUC(0-inf),1210 ng·h/mL
